Measurements from different studies.
Compare with care: the assays were run in different laboratories. Values joined by “and” are separate records of one study, mostly repeats; a detail may differ.

Nc1ncc(-c2cc(-c3cnn(CC(F)(F)F)c3)ncc2F)nc1C(=O)NC1CNCC(F)C1 (centres unmarked)  remaining binding (HIPK1; KINOMEscan; 1 µM; baseline: DMSO control): 50%
C[n+]1ccc(/C=N/NC(=O)c2cccc(C(=O)N/N=C/c3cc[n+](C)c4ccccc34)n2)c2ccccc21  ΔTm (hairpin duplex DNA; UV melting; 2 molar equivalents, DNA 3 µM): 2 °C
c1ccc(-c2n[nH]cc2-c2ccnc3ccccc23)nc1  log2 fold change (MPS1 (Candida albicans); kinase binding, MIB/MS competition; Candida albicans lysate; 10 µM; baseline: DMSO): 0.49
Fc1ccc(Nc2nc(NC3CCCCC3)c3cc(Br)ccc3n2)cc1F  maximal inhibition (β2AR/β1AR ECL2 chimera; β-arrestin2 recruitment, antagonist, BRET; baseline: isoprenaline maximal response): 1.2%
C=CC(=O)N1Cc2nc(-c3cc(-c4cc(Cl)cnc4Cl)c(F)cc3F)n(-c3ccncn3)c2C1  inhibition (CDK11 (human); kinome panel; 1 µM): -2.2%
C=CC(=O)Nc1cccc(Cn2ncc3cnc(Nc4cnn(CCOC)c4)nc32)c1  percent of control (PIK3CG human; binding, KINOMEscan; 100 nM; lower = stronger binding): 26%
C[n+]1ccc(/C=N/NC(=O)c2cncc(C(=O)N/N=C/c3cc[n+](C)c4ccccc34)n2)c2ccccc21  ΔTm (hairpin duplex DNA; UV melting; 1 molar equivalents, DNA 3 µM): 0 °C
C=CC(=O)N1[C@H](c2ccc3c(c2)OCO3)c2[nH]c3ccccc3c2C[C@@H]1C(=O)N1CCN(C)CC1  relative co-enrichment (human cyclin E1 N112C-3xFLAG:CDK2; co-IP with TMT proteomics, refers to: HNRNPA2B1; concentration not given, P22626; baseline: wild type DMSO): 165%
CC(C)(C#N)c1ccc2c(c1)N(C(=O)c1ccc([C@@](C)(O)C(F)(F)F)cc1)Cc1cccnc1N2  IC50 (IDH1 R132H human; 2-HG production, RapidFire mass spectrometry; MOG-G-UVW overexpressing IDH1 R132H): 205 nM
C=CC(=O)N1[C@@H](c2ccc3c(c2)OCO3)c2[nH]c3ccccc3c2C[C@H]1C(=O)NC1CC1  inhibition (FAM213A Cys85 human; cysteine IA-DTB labelling, covalent inhibitor, MS-ABPP; 22Rv1; 20 µM, 3 h): 78% and 76%
CSCC[C@H](NC(=O)[C@H](CCC(N)=O)NC(=O)[C@H](CCCCN)NC(=O)[C@H](CCCNC(=N)N)NC(=O)[C@H](Cc1ccc(O)cc1)NC(=O)[C@H](CCCNC(=N)N)NC(=O)[C@H](CO)NC(=O)[C@H](Cc1ccc(O)cc1)NC(=O)[C@H](CO)NC(=O)[C@H](CC(=O)O)NC(=O)[C@@H](NC(=O)[C@@H](N)Cc1ccccc1)[C@@H](C)O)C(=O)N[C@@H](C)C(=O)N[C@H](C(=O)N[C@@H](CCCCN)C(=O)N[C@@H](CCCCN)C(=O)N[C@@H](Cc1ccc(O)cc1)C(=O)N[C@@H](CC(C)C)C(=O)N[C@@H](C)C(=O)N[C@@H](C)C(=O)N[C@H](C(=O)N[C@@H](CC(C)C)C(=O)NCC(=O)N[C@@H](CCCCN)C(=O)N[C@@H](CCCNC(=N)N)C(=O)N[C@@H](Cc1ccc(O)cc1)C(=O)N[C@@H](CCCCN)C(=O)N[C@@H](CCC(N)=O)C(=O)N[C@@H](CCCNC(=N)N)C(=O)N[C@H](C(=O)N[C@@H](CCCCN)C(=O)N[C@@H](CC(N)=O)C(=O)N[C@@H](CCCCn1cc(C[C@H](NC(=O)CNC(=O)[C@H](CO)NC(=O)[C@H](CCCNC(=N)N)NC(=O)[C@H](CO)NC(=O)[C@H](CC(C)C)NC(=O)[C@H](CC(C)C)NC(=O)CNC(=O)[C@H](C)NC(=O)[C@H](CC(C)C)NC(=O)[C@H](CCCNC(=N)N)NC(=O)[C@H](Cc2c[nH]cn2)NC(=O)[C@@H](NC(=O)[C@@H](N)C(C)C)[C@@H](C)O)C(=O)N[C@H](C(=O)N[C@H](C(=O)N[C@@H](CCCCN)C(=O)N[C@@H](CC(N)=O)C(=O)N[C@@H](CC(N)=O)C(=O)N[C@@H](Cc2ccccc2)C(=O)N[C@H](C(=O)N2CCC[C@H]2C(=O)N[C@H](C(=O)N[C@@H](CC(N)=O)C(=O)N[C@H](C(=O)NCC(=O)N[C@@H](CO)C(=O)N[C@@H](CCCCN)C(=O)N[C@@H](C)C(=O)N[C@@H](Cc2ccccc2)C(N)=O)C(C)C)[C@@H](C)O)C(C)C)C(C)C)C(C)C)nn1)C(N)=O)C(C)C)C(C)C)C(C)C  pA2 (human VPAC1 receptor; cAMP accumulation, antagonist; transfected COS-7 cells): 5.53
Cc1[nH]nc2c1N=C(c1ccccc1Cl)c1cnc(N3CCOCC3)cc1N2  inhibition (kainate receptor, rat; radioligand binding; 10 µM): 3%
Fc1ccc(Nc2nc(NC3CCCCC3)c3ccccc3n2)cc1F  maximal inhibition (β2AR/β1AR ECL2 chimera; β-arrestin2 recruitment, antagonist, BRET; baseline: isoprenaline maximal response): -8.1%
Cc1cn(CC(=O)N(CC(=O)N[C@H]2COC[C@@H]2N(CC(=O)NCCOCCOCC(N)=O)C(=O)Cn2cnc3c(N)ncnc32)[C@H]2COC[C@@H]2NC(=O)CN(C(=O)Cn2cnc3c(N)ncnc32)[C@H]2COC[C@@H]2NC(=O)CN(C(=O)Cn2cnc3c(=O)[nH]c(N)nc32)[C@H]2COC[C@@H]2NC(=O)CN(C(=O)Cn2cc(C)c(=O)[nH]c2=O)[C@H]2COC[C@@H]2NC(=O)CN(C(=O)Cn2cnc3c(=O)[nH]c(N)nc32)[C@H]2COC[C@@H]2NC(=O)CN(C(=O)Cn2cc(C)c(=O)[nH]c2=O)[C@H]2COC[C@@H]2NC(=O)CN(C(=O)Cn2cnc3c(N)ncnc32)[C@H]2COC[C@@H]2NC(=O)CN(C(=O)Cn2cnc3c(=O)[nH]c(N)nc32)[C@H]2COC[C@@H]2N)c(=O)[nH]c1=O  ΔTm (mismatched DNA TC; duplex formation, UV melting; baseline: complementary DNA): -26.2 °C
